Assay results gathered from unrelated publications.
A part holds a random share of what one study measured. Positions count from the first letter of the parent shown.
Sequence of UniProt Q9ZTX9 (whole entry, looked up): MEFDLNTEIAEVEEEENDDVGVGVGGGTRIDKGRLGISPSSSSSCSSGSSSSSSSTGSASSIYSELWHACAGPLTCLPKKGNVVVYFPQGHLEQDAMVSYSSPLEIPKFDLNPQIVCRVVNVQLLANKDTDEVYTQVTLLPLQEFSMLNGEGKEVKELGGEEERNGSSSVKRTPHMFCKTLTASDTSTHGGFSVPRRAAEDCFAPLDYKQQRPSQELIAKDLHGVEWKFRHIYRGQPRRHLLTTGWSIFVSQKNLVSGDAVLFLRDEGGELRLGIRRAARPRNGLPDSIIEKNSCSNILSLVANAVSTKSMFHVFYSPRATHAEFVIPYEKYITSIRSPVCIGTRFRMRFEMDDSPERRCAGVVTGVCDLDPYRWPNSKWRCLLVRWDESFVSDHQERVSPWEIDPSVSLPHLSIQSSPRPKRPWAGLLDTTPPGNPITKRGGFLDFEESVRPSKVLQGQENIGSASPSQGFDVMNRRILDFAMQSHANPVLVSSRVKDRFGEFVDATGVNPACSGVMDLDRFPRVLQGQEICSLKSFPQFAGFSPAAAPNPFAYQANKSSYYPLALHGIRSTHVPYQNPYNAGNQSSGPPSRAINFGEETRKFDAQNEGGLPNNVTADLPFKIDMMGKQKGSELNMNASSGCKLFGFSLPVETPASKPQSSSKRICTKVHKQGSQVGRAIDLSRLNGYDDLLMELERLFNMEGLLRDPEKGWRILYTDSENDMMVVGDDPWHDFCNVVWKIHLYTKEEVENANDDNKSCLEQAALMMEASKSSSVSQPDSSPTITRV
Sequence of UniProt P93022 (whole entry, looked up): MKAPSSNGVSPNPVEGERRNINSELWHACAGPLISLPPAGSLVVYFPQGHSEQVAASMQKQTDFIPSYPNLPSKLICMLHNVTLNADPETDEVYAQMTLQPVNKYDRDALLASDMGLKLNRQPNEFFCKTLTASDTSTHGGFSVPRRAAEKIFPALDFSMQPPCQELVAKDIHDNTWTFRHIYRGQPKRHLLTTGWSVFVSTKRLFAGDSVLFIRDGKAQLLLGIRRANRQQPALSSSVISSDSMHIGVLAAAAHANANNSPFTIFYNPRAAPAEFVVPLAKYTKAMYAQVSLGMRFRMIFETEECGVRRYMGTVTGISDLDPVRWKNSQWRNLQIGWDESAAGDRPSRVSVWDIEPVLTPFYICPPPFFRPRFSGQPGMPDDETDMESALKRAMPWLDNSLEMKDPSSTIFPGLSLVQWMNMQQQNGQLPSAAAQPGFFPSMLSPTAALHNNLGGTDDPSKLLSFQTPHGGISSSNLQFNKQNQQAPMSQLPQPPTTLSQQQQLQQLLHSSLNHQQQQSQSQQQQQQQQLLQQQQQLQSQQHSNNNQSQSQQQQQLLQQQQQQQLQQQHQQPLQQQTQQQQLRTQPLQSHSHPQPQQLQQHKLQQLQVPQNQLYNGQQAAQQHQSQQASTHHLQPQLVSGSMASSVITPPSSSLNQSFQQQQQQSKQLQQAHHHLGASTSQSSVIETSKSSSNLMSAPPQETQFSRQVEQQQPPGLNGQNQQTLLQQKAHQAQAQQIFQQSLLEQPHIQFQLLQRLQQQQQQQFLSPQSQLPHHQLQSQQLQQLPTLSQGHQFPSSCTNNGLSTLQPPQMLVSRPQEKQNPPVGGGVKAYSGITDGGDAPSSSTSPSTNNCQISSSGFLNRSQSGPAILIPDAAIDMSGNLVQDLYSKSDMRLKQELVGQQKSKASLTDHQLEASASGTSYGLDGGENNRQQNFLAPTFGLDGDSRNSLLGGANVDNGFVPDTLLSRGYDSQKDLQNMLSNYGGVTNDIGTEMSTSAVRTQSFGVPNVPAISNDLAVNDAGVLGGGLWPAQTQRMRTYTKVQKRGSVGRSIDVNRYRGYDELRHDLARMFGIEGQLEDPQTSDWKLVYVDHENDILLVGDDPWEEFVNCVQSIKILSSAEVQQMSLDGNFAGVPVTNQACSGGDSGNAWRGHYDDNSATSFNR
Sequence of UniProt Q84WU6 (whole entry, looked up): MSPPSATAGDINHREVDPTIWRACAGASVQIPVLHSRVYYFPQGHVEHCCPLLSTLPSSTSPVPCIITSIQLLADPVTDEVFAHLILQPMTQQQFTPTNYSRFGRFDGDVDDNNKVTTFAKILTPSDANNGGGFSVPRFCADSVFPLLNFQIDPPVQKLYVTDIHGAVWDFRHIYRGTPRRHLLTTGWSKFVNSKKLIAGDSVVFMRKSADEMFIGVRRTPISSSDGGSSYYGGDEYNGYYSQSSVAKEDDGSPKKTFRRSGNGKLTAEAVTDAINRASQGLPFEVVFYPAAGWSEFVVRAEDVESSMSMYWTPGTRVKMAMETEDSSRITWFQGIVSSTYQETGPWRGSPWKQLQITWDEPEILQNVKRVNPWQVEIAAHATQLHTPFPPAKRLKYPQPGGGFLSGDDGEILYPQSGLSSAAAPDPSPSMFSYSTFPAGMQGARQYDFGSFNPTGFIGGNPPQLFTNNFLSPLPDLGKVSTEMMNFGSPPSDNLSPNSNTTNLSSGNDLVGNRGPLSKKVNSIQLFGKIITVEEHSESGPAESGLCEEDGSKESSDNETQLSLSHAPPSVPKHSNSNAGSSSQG
Sequence of UniProt Q9ZTX8 (whole entry, looked up): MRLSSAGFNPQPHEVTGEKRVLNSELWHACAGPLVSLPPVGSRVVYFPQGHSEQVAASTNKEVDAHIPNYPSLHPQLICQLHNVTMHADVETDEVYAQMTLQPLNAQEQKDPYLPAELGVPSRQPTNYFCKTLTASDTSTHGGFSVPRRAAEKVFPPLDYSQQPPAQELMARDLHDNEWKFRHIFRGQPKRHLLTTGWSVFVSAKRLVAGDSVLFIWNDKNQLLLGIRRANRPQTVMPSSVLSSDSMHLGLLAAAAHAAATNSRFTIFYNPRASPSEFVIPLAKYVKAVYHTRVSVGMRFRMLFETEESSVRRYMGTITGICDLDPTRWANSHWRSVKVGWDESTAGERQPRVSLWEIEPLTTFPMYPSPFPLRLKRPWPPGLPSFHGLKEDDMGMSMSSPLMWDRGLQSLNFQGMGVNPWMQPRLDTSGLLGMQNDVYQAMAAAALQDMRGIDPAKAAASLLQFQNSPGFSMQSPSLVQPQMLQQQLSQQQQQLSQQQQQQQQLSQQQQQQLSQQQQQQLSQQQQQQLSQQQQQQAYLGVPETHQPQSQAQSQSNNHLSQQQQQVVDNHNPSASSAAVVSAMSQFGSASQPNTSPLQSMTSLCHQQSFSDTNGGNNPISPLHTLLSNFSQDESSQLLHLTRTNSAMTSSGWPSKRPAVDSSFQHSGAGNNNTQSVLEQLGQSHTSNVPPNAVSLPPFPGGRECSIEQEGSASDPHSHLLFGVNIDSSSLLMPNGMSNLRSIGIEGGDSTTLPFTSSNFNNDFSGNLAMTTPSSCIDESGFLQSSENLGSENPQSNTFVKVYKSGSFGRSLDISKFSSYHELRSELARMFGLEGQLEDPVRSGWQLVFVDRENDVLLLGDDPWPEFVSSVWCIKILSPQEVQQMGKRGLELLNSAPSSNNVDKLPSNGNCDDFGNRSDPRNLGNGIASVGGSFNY
Sequence of UniProt Q9FX25 (whole entry, looked up): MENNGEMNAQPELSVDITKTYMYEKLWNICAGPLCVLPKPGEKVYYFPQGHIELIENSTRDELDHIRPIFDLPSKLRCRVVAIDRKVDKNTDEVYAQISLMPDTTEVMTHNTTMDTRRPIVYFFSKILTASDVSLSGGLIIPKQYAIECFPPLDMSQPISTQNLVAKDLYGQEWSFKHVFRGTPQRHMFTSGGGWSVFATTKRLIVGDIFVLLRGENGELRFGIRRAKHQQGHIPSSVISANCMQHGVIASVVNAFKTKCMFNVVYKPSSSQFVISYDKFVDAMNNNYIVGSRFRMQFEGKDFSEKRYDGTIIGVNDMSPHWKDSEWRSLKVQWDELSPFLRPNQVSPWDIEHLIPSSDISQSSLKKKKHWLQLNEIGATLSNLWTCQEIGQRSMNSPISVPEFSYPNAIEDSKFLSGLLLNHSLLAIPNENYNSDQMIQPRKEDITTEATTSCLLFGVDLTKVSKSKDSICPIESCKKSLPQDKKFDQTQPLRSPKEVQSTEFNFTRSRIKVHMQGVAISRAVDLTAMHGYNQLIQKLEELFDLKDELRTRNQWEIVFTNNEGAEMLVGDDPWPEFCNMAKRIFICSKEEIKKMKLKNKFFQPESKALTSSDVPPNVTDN

Series 1
Target: CRIPT, C-terminal peptide
Technique: DHFR complementation, deep sequencing
Sample: yeast
Setting: single substitutions, model-inferred values
Reference: wild type
Reading: higher = weaker binding
Measurement: binding free energy change
Starting sequence: ERBIN, PDZ domain 1 (human); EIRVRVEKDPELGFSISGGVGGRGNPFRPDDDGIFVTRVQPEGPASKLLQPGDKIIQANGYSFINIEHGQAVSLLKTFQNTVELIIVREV; partner TKNYKQTSV
Variant = G13W; value = 1.26 kcal/mol
Variant = R28M; value = 0.0938 kcal/mol
Variant = I55V; value = 0.197 kcal/mol
Variant = S73N; value = 0.0324 kcal/mol
Variant = G24E; value = 1.41 kcal/mol
Variant = A45D; value = 0.0612 kcal/mol
Variant = D53H; value = 0.0039 kcal/mol
Variant = Q50G; value = 0.0763 kcal/mol

Series 2
Substance: ETT (Arabidopsis thaliana, UniProt O23661)
Sequence of UniProt O23661 (whole entry, looked up): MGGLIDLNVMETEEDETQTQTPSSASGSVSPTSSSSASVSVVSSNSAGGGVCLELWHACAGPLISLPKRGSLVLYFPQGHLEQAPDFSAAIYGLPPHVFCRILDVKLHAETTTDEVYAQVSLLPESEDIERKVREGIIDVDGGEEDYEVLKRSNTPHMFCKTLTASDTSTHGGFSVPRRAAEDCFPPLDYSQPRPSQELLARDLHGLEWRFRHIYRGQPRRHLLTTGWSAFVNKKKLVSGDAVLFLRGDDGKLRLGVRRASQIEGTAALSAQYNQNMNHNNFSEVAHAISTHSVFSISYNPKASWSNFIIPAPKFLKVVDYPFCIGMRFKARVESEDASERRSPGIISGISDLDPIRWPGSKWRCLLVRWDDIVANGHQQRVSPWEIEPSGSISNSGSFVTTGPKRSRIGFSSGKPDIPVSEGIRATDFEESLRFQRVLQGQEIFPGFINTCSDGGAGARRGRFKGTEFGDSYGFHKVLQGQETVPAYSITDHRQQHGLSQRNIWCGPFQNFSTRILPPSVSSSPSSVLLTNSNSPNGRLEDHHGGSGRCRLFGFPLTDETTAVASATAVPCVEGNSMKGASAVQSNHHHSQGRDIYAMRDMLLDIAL
Technique: two-hybrid
Reading: higher = firmer interaction
Measurement: positive tests
partner = ARF4 660-788 (Arabidopsis thaliana, UniProt Q9ZTX9); reference = out of 2 tests; value = 0
partner = ARF13 (Arabidopsis thaliana, UniProt Q9FX25); reference = out of 2 tests; value = 0
partner = ARF20 484-590 (Arabidopsis thaliana, UniProt Q9C7I9); reference = out of 2 tests; value = 0
partner = ARF6 790-935 (Arabidopsis thaliana, UniProt Q9ZTX8); reference = out of 3 tests; value = 0
partner = ARF17 (Arabidopsis thaliana, UniProt Q84WU6); setting = weak activation fusion; reference = out of 2 tests; value = 0
partner = ARF7 1030-1164 (Arabidopsis thaliana, UniProt P93022); reference = out of 3 tests; value = 0
partner = ARF9 519-638 (Arabidopsis thaliana, UniProt Q9XED8); setting = weak activation fusion; reference = out of 2 tests; value = 0
partner = ARF14 497-605 (Arabidopsis thaliana, UniProt Q9LQE8); reference = out of 0 tests; value = 0

Mixed results
P1: viral docking peptide; KGVKRKLFAEDSS; partner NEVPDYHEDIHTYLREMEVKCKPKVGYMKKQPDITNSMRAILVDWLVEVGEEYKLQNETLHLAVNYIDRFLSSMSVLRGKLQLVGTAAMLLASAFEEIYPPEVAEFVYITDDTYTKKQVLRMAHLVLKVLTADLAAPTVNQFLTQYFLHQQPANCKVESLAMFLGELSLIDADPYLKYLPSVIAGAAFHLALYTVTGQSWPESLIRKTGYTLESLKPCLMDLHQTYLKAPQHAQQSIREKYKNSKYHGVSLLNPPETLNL
Substance = P1 V3L; target = CCNA2, cyclin fold, Cln2 fusion (human); test = yeast growth competition, sequencing; system = yeast; conditions = strong parent motif; how to read = reference: not given, higher = stronger binding; measurement = normalised enrichment score; value = 3.07
Substance = PhoQ, residues 284 288 289 292 302 303 SVTLVV; target = PhoP, residues 12 14 15 18 19 TPLRH (Escherichia coli, UniProt P23836); test = Sort-seq, refers to: YFP reporter; system = E. coli; conditions = PhoQ-PhoP variant library, added: 10 µM Mg2+; how to read = reference: high Mg2+ state, higher = stronger signaling; measurement = fold induction; value = 0.881

For quick reference, copied from above (series 2):
partner = ARF6 790-935 (Arabidopsis thaliana, UniProt Q9ZTX8); reference = out of 3 tests; value = 0
